# Measured values collected from several papers.
# A part holds a random share of what one study measured. Changes are numbered by the printed parent chain.

# Set 1
# Target: Histone acetyltransferase KAT6A, both winged helices, GST fusion (KAT6A, Homo sapiens, UniProt Q92794, residues 1-181)
# Technique: protein binding microarray
# Molecule type: double-stranded DNA, one strand shown
# Sample: in vitro
# Tested at: not given
# Setting: 8-mer, flanks averaged, mean of 2 arrays, mostly near background
# Baseline: not given
# Reading: higher = stronger binding
# Construct (chain): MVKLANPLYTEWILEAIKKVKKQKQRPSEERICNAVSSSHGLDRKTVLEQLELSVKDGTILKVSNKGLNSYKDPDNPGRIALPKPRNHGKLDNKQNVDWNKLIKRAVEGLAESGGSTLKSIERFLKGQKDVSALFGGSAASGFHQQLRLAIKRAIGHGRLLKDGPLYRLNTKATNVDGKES
Sequence,E-score
CCCTGGTC,-0.0709
ACCTTAAT,-0.223
TATGTTGA,0.0521
ACTAACTA,-0.127
CCGGAGTA,0.129
ACTAACTC,-0.196
AATCTACG,0.141
CGAGTGGA,-0.144
AATTAAGA,-0.182
AGCTTAAT,-0.0955
CGGGCAAA,0.176
CGATTAAG,-0.0728
ACTAATGA,-0.104
CCGTCTAC,0.169
CCGTCTCG,0.193
GACTCATA,-0.138
AGTTGTCC,0.0464
ATAACGAC,-0.0398
GTCAACAC,-0.0327
AGGAATGA,-0.0781
AGGTATCA,-0.196
ATAGGTAG,-0.27
ACGTACCA,-0.167
ACTGACCA,-0.103
TAATCGAA,0.0262

# Set 2
# Target: CCND1, cyclin fold, Cln2 fusion (human)
# Technique: yeast growth competition, sequencing
# Sample: yeast
# Setting: weak parent motif
# Baseline: not given
# Reading: higher = stronger binding
# Parent: MASTL docking peptide (human); PMIAKNLMCELDE; partner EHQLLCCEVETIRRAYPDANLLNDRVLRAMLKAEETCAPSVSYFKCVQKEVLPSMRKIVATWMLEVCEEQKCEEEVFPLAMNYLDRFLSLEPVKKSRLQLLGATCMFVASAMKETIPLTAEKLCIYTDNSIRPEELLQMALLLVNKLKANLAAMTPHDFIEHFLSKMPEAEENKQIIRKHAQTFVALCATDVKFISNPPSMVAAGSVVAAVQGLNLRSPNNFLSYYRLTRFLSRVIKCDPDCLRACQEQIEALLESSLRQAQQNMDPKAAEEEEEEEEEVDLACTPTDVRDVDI
Substitution,normalised enrichment score
PMKAKNLMCELDE [I3K],0.187
PMIAPNLMCELDE [K5P],0.258
PMIAKNLMCELVE [D12V],0.195
PMIAKNVMCELDE [L7V],-0.147
PWIAKNLMCELDE [M2W],0.0681
PMIAKNLMCQLDE [E10Q],0.24
PMIAKNLMCELCE [D12C],0.188
PMIAKNLFCELDE [M8F],0.255
PMIAKNLMKELDE [C9K],-0.0361
PMIAKNLMCELYE [D12Y],-0.32
PMIAKNLMCENDE [L11N],0.16
PMIAKNLMCKLDE [E10K],0.169
PMILKNLMCELDE [A4L],0.202
PMIAYNLMCELDE [K5Y],0.38
PMIAKNLICELDE [M8I],-0.0653
PMIAKNLMHELDE [C9H],-0.361

# Set 3
# Target: ABI1, truncated, D143A, DHFR fusion (Arabidopsis thaliana)
# Technique: DHFR PCA, deep sequencing
# Sample: yeast
# Setting: methotrexate growth selection, single substitutions
# With: (+)-ABA 0.11 µM
# Baseline: wild-type fitted maximum
# Reading: higher = stronger binding
# Parent: PYL1, truncated, DHFR fusion (Arabidopsis thaliana); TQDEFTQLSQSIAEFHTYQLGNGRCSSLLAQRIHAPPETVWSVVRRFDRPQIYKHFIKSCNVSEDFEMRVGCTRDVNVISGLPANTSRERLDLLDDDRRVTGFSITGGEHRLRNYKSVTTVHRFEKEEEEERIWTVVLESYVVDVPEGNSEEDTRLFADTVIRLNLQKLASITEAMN; partner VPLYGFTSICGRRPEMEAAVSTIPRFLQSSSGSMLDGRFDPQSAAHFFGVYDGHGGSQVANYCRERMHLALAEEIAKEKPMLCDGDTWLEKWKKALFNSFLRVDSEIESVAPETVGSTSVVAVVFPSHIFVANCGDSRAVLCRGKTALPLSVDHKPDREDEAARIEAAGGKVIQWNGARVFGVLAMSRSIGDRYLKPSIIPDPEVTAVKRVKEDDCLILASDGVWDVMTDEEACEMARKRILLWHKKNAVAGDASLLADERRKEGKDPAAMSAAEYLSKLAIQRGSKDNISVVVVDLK
Substitution,relative binding score
A170M,8.27%
E128F,22.2%
D96M,-6.64%
H110P,74.9%
S171V,28.1%
V76S,-0.204%
T39P,-7.86%
N149D,18.1%

# Set 4
# Target: Fragile X messenger ribonucleoprotein 1, C-terminal low-complexity region (Fmr1, Mus musculus, UniProt P35922)
# Technique: RNA Bind-n-Seq
# Molecule type: RNA
# Sample: in vitro
# Tested at: 200 nM
# Setting: whole 134-nt RNA, ends assumed
# With: 150 mM KCl
# Baseline: input library
# Reading: higher = stronger binding
# Constant ends, left off below: GGGAGUUCUACAGUCCGACGAUC … UGGAAUUCUCGGGUGUCAAGG
Sequence,log2 enrichment
AAGUCCUGUGCUACACAUCGUAUGUACCGAAUCGGGUUUUGGGGUUUUGGGUUUUGGAAAGUAUUAUGUUACGCCGUUCGGAUCUGCACU,-0.101
UGCGCCAACCUAGGCUUUCUUCUUCCUCUCCUCUUUAUAGGCGGAGUCGAUCUCCCAAAAGGAGAAGGUAGGCCUUCAGUCAUUUGUGAU,-0.124
UCCUGUGCUACACAUCGUAUGUACCGAAUCGGGUUUUUGGGAAAAAAAGGGUUUUUGGGAAAGUAUUAUGUUACGCCGUUCGGAUCUGCA,-0.282
UAACUUUAGAGGAGGAUCUGAUGGAUAUGGCAGUGGACGUGGAUUUGGGGAUGGCUAUAAUGGGUAUGGAGGAGGACCUGGAGGUGGGAA,0.29
UGGCCCUGGUGGCAUGCGGGGAGGAAGAGGUGUCCUCAUGGAUCGUGGUGGUCCCGGUGGAAUGUUCAGAGGUGGCCGUGGUGGAGACAG,-0.0833
ACCAUGCAGGUGGGCAUCUUUGGGAAGUGGGGCAAGGGGGGGAUAGGGAGGGGGGUAACACUUUGGGAACAGGUGGUCCCAGGGCGUUUC,0.69
UGGGAGGUGGAUUUUGUUUAUUUUUUUAGCUCAUUUCCAGGGGUGGGAAUUUUUUUUUAAUAUGUGUCAUGAAUAAAGUUGCUUUUGAAA,0.188
GAAAUCCACAGGAAAGUGAUGUCACAAAACUUCACCAACUGCCACACCAAGAUUCGCCAUGUUGAUGCUCAUGCCACGCUAAAUGAUGGU,0.192
UCAAGUCCUGUGCUACACAUCGUAUGUACCGAAUCGGUUUGGGUUUGGGUUUGGAAAGUAUUAUGUUACGCCGUUCGGAUCUGCACUUCC,-0.332
UCCUGUGCUACACAUCGUAUGUACCGAAUCGGAAAAAAAGGAAAAAAAGGAAAAAAAGGAAAGUAUUAUGUUACGCCGUUCGGAUCUGCA,-0.273
CAAGUCCUGUGCUACACAUCGUAUGUACCGAAUCGGGUUUGGUUUGGGUUUGGGGAAAGUAUUAUGUUACGCCGUUCGGAUCUGCACUUC,0.0294
CCUCAAGUCCUGUGCUACACAUCGUAUGUACCGAAUCGGGGAGGGGAGGAGGAAAGUAUUAUGUUACGCCGUUCGGAUCUGCACUUCCAG,0.61
AGUCCUGUGCUACACAUCGUAUGUACCGAAUCGGGUUUGGGAAAGGGAAAAAAAGGGAAAGUAUUAUGUUACGCCGUUCGGAUCUGCACU,0.308
AGUCCUGUGCUACACAUCGUAUGUACCGAAUCGGGAAAGGGUUUGGGAAAAAAAGGGAAAGUAUUAUGUUACGCCGUUCGGAUCUGCACU,-0.285

# Set 5
# Target: RNA binding protein fox-1 homolog 2, RRM domain, GST-SBP tag (RBFOX2, Homo sapiens, UniProt O43251-10, residues 100-194)
# Technique: RNA Bind-n-Seq
# Molecule type: RNA
# Sample: in vitro
# Tested at: 365 nM
# Setting: natural RNA segment, single round, ends assumed
# Baseline: no-protein control
# Reading: higher = stronger binding
# Constant ends, left off below: GGGAGUUCUACAGUCCGACGAUC … UGGAAUUCUCGGGUGCCAA
# Target sequence (chain): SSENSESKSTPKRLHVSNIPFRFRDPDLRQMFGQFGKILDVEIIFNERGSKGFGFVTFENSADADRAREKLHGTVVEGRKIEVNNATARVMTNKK
Sequence,RBNS enrichment (R)
CAAAGGUUUUCUUACAUCUUCUUCCAUUGCAUAAUAUGCCUUGUGUAAUAGUUAAGAAAUCAUUUUUUCUGAAUGACUUAAAAAAUUUGAUUGAAAAUUUGGCAAAUUAC,0.917
CACCUCUCCAGGGACUGAGCAUCAUUGGCUCAUUGUCAUGGGGAGCUCCCUCCUGACCACGGAGGCUCCACUGGUGGUGCCACAUGGGAAACAUCUACUUCUCAGUCUAA,0.338
UACCUGCCACUUGGUCCUGGGAGGUCAAAGGCCACAGAGGGAUAGGUACAGUCACCACCACCCUGGAACCAAGGGUCUCACACCAUUGCUCAGUGCUGAACUAUAACUGC,0.46
CUUUCUCUCCAAUAAUGUUGCAACUCACCAAAACUAUUCUUGAAGAGGUCCAAGAACAUGUAUUAUCCAGACUAAAAAAAUGAUUUUUUGUUGUUAUGGUUUACGUGAUG,0.452
AUCAAAGAGUGCUAAGAAAAUUGCGAAGAAGCCUUACUGCUUACACCAGAGAGCUCAGGGCAGCUUUAUCUUCCAGGUUUAUCUAAAACUAUCUGUGUUGGGCUUCCCUG,0.368
ACCACGUCUGUGCCCUGCACUGUCCCCACAGCCUUCCACACCCUGUGCAUAGGCAGCCCUCUCACGUCUUGAGGUCCGAAGCUGGGGUGGGGGUGUCCGUCAGUUAUUAG,0.377
UAAGCAGGUCAAGCAUUUUGAAUUUCAAUGUAGGCCUUCAGGAUCUUCUCACAUGAGGUCAACUGCUAAUGCAAUCUCUACACUUCAAAAAGCACUGAUCGUUCUCCAGU,0.266
ACUAUGUAAUAAAUGGUUAACUUUCAAAUGAUGCUGCUGCCAAAAUUAUAUUAAUAGUGAGUUUCAGGCCCCUGGGCAUUUUGUACCAUGUAAUUAUCCUCUGGUGAUGC,0.466
UAUGAGGGAGACAAAUGAGUUGAUAGUUUGAAUUAUAGGAUUUUUGCCACGUUACCUUGAUGCAAAUUUGCCAAAUCUGAUACUGUGAAAAGAUUUGAUAACUUUUCUAA,0.876
CUUCAGUCCCUCAGGCUGGCAGCCGCUGCAGGUACCUGCCUGGGGGGGCCUGGCAGCCAUGGAGAAGGCUGAGAGGCAGAAGGACACGGGGUCUUCCUGCCUCACCACCU,0.58
AAAAUGUUAACUUUGCCUAAAAAUAUUGCAGUGACUUUUUAGGCAGGAGUGCCAAAGGACACUAUGAACUUUUUGAACUGACAGUUUCUCCUAACUUUCUGCUUUAGCGU,0.639
AUUCUUGUAUUUAUGUGAGACUUGCCCAUCUACUGUCUUGGCUGUGUCUUGCCUUUUAAUCAUGAACAGUUACAUGAUUUAUAAUUUCACUGAUUGAGAUUACUUUGUAA,0.447

# Set 6
# Target: TAR DNA-binding protein 43, full length, His tag (TARDBP, Homo sapiens, UniProt Q13148, residues 1-414)
# Technique: RNA Bind-n-Seq
# Molecule type: RNA
# Sample: in vitro
# Tested at: 20 nM
# Setting: 6-mer, flanks averaged, single round
# With: 150 mM KCl
# Baseline: input library
# Reading: higher = stronger binding
Sequence,6-mer enrichment (R)
AACCGU,0.612
GAGUGA,1.66
CAAGAC,0.654
UUAGCG,0.855
GGUAUG,1.8
CACGCC,0.685
GGCCAC,1.1
CUGCGG,1.6
GCAUUA,0.637
GCGAUC,0.821
UGGGGA,3.82
CUUUGU,0.646
CAUUCA,0.558

# Other studies, line by line
Substance,target,assay,test system,conditions,how to read,quantity,result
"PhoQ, residues 284 288 289 292 302 303 AGHLVA","PhoP, residues 12 14 15 18 19 LQHIR (Escherichia coli, UniProt P23836)","Sort-seq, refers to: YFP reporter",E. coli,"PhoQ-PhoP variant library, with: 10 µM Mg2+","baseline: high Mg2+ state, higher = stronger signaling",fold induction,9.83

# Some of these lines once more (set 6):
Sequence,6-mer enrichment (R)
UUAGCG,0.855
GGUAUG,1.8
GAGUGA,1.66
GCAUUA,0.637
GGCCAC,1.1
CAAGAC,0.654
